Measured values collected from several papers.
“And” joins repeats or separate records; there may be more than shown. ± gives the spread as reported.
Organism: HIV-1

Cc1ccc(-c2ccc3c(c2)C=C(C(=O)Nc2ccc(C[N+](C)(C)C4CCOCC4)cc2)CCC3)cc1 — IC50 (viral replication; PBMC, Ba-L, R5): 28 ± 32 nM
C#C[C@]1(CO)O[C@@H](n2cnc3c(N)nc(F)nc32)C[C@@H]1O — IC50 (MT-4): 0.4 nM
COc1ccc(S(=O)(=O)N(CC(C)C)C[C@@H](O)[C@H](Cc2ccccc2)NC(=O)O[C@H]2CCO[C@H]3OC[C@@H](OC)[C@H]32)cc1 — IC50 (viral replication, MTT): 47 nM
CCCCOn1cc(CC(=O)Nc2ccncc2Cl)c2ccccc21 — IC50 (viral replication; HEK293T): 40 ± 10 nM
Cc1cn([C@H]2C[C@H](N=[N+]=[N-])[C@@H](CO)O2)c(=O)[nH]c1=O — IC50 (virus neutralization; DU422): 183 ± 1.9 nM
Cc1cn(C2CC(O)C(C#N)(CO)O2)c(=O)[nH]c1=O (stereo not shown) — IC50 (viral replication, MTT; MT4, K65R): 2 ± 0.01 nM
N#C[C@]1(CO)O[C@@H](n2cnc3c(=O)[nH]c(N)nc32)C[C@@H]1O — IC50 (viral replication, MTT; MT4): 0.4 ± 0.1 nM
CC(C)C[C@H](NC(=O)CCCCCNC(=O)CCCC[C@@H]1SC[C@@H]2NC(=O)N[C@@H]21)C(=O)N[C@@H](CS)C(=O)N[C@@H](CC(=O)O)C(=O)N[C@@H](CO)C(=O)N1CCC[C@H]1C(=O)N[C@@H](CC(N)=O)C(=O)NCC(=O)N1CCC[C@H]1C(=O)N[C@@H](Cc1c[nH]c2ccccc12)C(=O)N[C@H](C(=O)N[C@@H](Cc1c[nH]c2ccccc12)C(=O)N[C@H](C(=O)N1CCC[C@H]1C(=O)N[C@@H](C)C(=O)N[C@@H](Cc1ccccc1)C(=O)N[C@@H](CO)C(=O)N[C@@H](CCC(N)=O)C(=O)N[C@@H](C)C(=O)N[C@H](C(=O)NCC(=O)O)C(C)C)C(C)C)C(C)C — IC50 (viral replication, inhibitor, SEAP reporter; CEMx174 SEAP reporter, NL4-3; 3 days): 54600 ± 10000 nM
[Cl-].[Cl-].[Cl-].[Cl-].[O]=[V+2].[O]=[V+2].c1cc(CN2CCCNCCNCCCNCC2)ccc1CN1CCCNCCNCCCNCC1 — IC50 (viral cytopathic effect; MT4 cells, IIIB): 119 nM and 117 nM
O=c1cc(-c2ccc(O)c(O)c2)oc2cc(O)cc(O)c12 — IC50 (viral replication; TZM-bl, BaL, CCR5-tropic; 48 h): 2220 ± 690 nM

A few entries again:
Cc1cn([C@H]2C[C@H](N=[N+]=[N-])[C@@H](CO)O2)c(=O)[nH]c1=O — IC50 (virus neutralization; DU422): 183 ± 1.9 nM
Cc1ccc(-c2ccc3c(c2)C=C(C(=O)Nc2ccc(C[N+](C)(C)C4CCOCC4)cc2)CCC3)cc1 — IC50 (viral replication; PBMC, Ba-L, R5): 28 ± 32 nM
